# Experimental data pooled from the literature.
# Protocols differ between the studies behind these lines.
Structure (SMILES),target or system,test,system,conditions,scale,measurement,value
C[C@@H]1C[C@@H]([C@H](O)CC2CC(=O)NC(=O)C2)C(=O)[C@@H](C)C1,Mus musculus,"gene silencing, high-content imaging",LDR reporter GFP cells,"30 h, retest run 1",,Emax,26%
Nc1ncnc2c1ncn2[C@@H]1O[C@@H]2COP(=O)(O)O[C@H]3[C@@H](O)[C@H](n4cnc5c(=O)[nH]cnc54)O[C@@H]3COP(=O)(O)O[C@H]2[C@H]1O,West Nile virus,"RNA sequencing Reactome analysis, refers to: Muscle contraction (R-HSA-397014)",HFF-1,"concentration not given, downregulated pathways, together with: West Nile virus infection",baseline: WNV-infected without compound,fold enrichment,3.37
CC[C@H](C)[C@H](NC(=O)[C@H](C)NC(=O)[C@H](CCCCN)NC(=O)[C@H](CC(C)C)NC(=O)[C@H](C)NC(=O)[C@@H](NC(=O)[C@H](Cc1c[nH]cn1)NC(=O)[C@H](CC(C)C)NC(=O)[C@@H](NC(=O)[C@@H](NC(=O)[C@H](CCCCN)NC(=O)[C@H](C)NC(=O)[C@H](C)NC(=O)[C@H](CO)NC(=O)[C@H](CCCCN)NC(=O)[C@H](Cc1ccccc1)NC(=O)[C@@H](NC(=O)[C@H](CCCCN)NC(=O)[C@H](CC(C)C)NC(=O)[C@H](Cc1ccccc1)NC(=O)[C@H](CO)NC(=O)[C@H](CCCCN)NC(=O)[C@H](Cc1c[nH]c2ccccc12)NC(=O)[C@H](CCCCN)NC(C)=O)[C@@H](C)O)[C@@H](C)O)C(C)C)[C@@H](C)O)C(=O)N[C@@H](CO)C(=O)N[C@@H](CO)C(N)=O,Streptococcus pyogenes,,erythromycin-resistant,19 strains,,MIC50,32 µg/mL
N#Cc1ccc(C(c2ccc(C#N)cc2)n2cncn2)cc1,human coronavirus OC43,virus-induced cell killing,MRC-5,maximum over 10 doses,,maximum inhibition,0%
Cn1c(=O)ccc2ccc(F)c(CCNC[C@H]3CN(c4cnc5c(n4)NC(=O)CO5)C(=O)O3)c21,Serratia marcescens,,,,,MIC90,1 µg/mL
C[C@H]1CCC/C=C/[C@@H]2C[C@H](O)C[C@H]2[C@H](O)/C=C/C(=O)O1,Toxoplasma gondii,bradyzoite growth,,"glutamine-induced bradyzoites, glucose-free medium",,EC50,160 nM
CC[C@]1(O)C[C@H]2CN(CCc3c([nH]c4ccccc34)[C@@](C(=O)OC)(c3cc4c(cc3OC)N(C=O)[C@H]3[C@@](O)(C(=O)OC)[C@H](OC(C)=O)[C@]5(CC)C=CCN6CC[C@]43[C@@H]65)C2)C1,human coronavirus OC43,virus-induced cell killing,MRC-5,maximum over 10 doses,,maximum inhibition,0%
CCOc1cc(N2CCC(O)CC2)ccc1Nc1ncc2c(n1)N(C)c1ccccc1C(=O)N2C,mouse hepatitis virus,viral replication,nanoluciferase reporter,1 µM,,inhibition,9%
Clc1ccc2nc(N3CCC(NCCc4cccnc4)CC3)sc2c1,Vero-E6,CellTiter-Glo ATP,,"concentration not given, 72 h, second round 5-point","baseline: DMSO 0%, hyamine -100%, more negative, more toxic",cytotoxicity efficacy,-15.3%
OC[C@H]1O[C@@H](n2ccc3c(O)ncnc32)[C@H](O)[C@@H]1O,Toxoplasma gondii,[3H]uracil incorporation,"human fibroblasts, adenosine kinase-deficient",10 µM,,parasite survival,100%
CCOC(=O)c1[nH]c2cc(Cl)ccc2c1C(C(=O)NC(C)(C)C)N(C=O)Cc1ccc(Cl)cc1 (centres unmarked),human coronavirus OC43,virus-induced cell killing,MRC-5,maximum over 10 doses,,maximum inhibition,0%
O=[N+]([O-])c1cc2c(ccc3c2ccc2cc([N+](=O)[O-])oc23)o1,Salmonella enterica,REMA,,,,MIC90,< 0.25 µg/mL
CC#C[C@]1(O)CC[C@H]2[C@@H]3CCC4=CC(=O)CCC4=C3[C@@H](c3ccc(N(C)C)cc3)C[C@@]21C,human coronavirus OC43,virus-induced cell killing,MRC-5,screen,,maximum inhibition,23.9%
CCC1CCCCN1CCCNC(=O)c1sc2nc(C)cc(C)c2c1-n1cccc1 (centres unmarked),Vero-E6,CellTiter-Glo ATP,,"concentration not given, 72 h, first round 5-point","baseline: DMSO 0%, hyamine -100%, more negative, more toxic",cytotoxicity efficacy,0%

# Repeated from above:
Structure (SMILES),target or system,test,system,conditions,scale,measurement,value
Nc1ncnc2c1ncn2[C@@H]1O[C@@H]2COP(=O)(O)O[C@H]3[C@@H](O)[C@H](n4cnc5c(=O)[nH]cnc54)O[C@@H]3COP(=O)(O)O[C@H]2[C@H]1O,West Nile virus,"RNA sequencing Reactome analysis, refers to: Muscle contraction (R-HSA-397014)",HFF-1,"concentration not given, downregulated pathways, together with: West Nile virus infection",baseline: WNV-infected without compound,fold enrichment,3.37
